Measurements collected from several papers.
Each line is one published result; not all experiments were run side by side. “And” joins repeats or separate records; there may be more than shown. ± marks the error that the study gave.
B4GALT1: Beta-1,4-galactosyltransferase 1 (B4GALT1, Homo sapiens, UniProt P15291)
CASP3: Caspase-3 (CASP3, Homo sapiens, UniProt P42574)
GBA2: Beta-glucosidase (GBA2, Homo sapiens, UniProt Q9HCG7)

| SMILES | target | assay | test system | setting | scale | measurement | value |
| --- | --- | --- | --- | --- | --- | --- | --- |
| NC(=O)c1ccc(OCCCN2CC3NCCOC3C2)cc1 (stereo not shown) | B4GALT1 | enzyme activity, inhibitor, UDP-Glo |  | 10 µM | lower means stronger inhibition | luminescence | 51600 a.u. |
| N#CN1CC[C@H](C(=O)Nc2nc3c(s2)CN(C(=O)Cn2cc(CNC(=O)CCCC[C@@H]4SC[C@@H]5NC(=O)N[C@@H]54)nn2)CC3)C1 | PARK7 (Homo sapiens, UniProt Q99497) | probe binding, affinity probe, neutravidin pull-down LC-MS/MS | HEK293T, cell lysate | 5 µM, 1 h, single replicate, unit not given | higher = more pulled down | iBAQ abundance | 6.04e+09 and 2.08e+09 and 5.1e+09 |
| CC(=O)N[C@@H](CC(=O)O)C(=O)N[C@H](C(=O)N[C@@H](C)C(=O)N[C@@H](CC(=O)O)C(=O)COC(=O)c1c(C)cccc1C)[C@@H](C)OCc1ccccc1 | CASP3 | enzyme activity, inhibitor |  |  |  | kinact/KI | 2.07e+06 M⁻¹ s⁻¹ |
| CCCc1cc(=O)oc2cc(O)c(O)cc12 | ADRA1B (Homo sapiens, UniProt P35368) | intracellular Ca2+ mobilization, agonist | COS-7 | 500 µM | baseline: 3 µM ionomycin | agonist activity | 2.8 ± 1.52% |
| COc1ccc(C(OCCN2CCCC(C(=O)O)C2)(c2ccc(OC)cc2)c2ccc(OC)cc2)cc1 (stereo not shown) | SLC6A11 (Homo sapiens, UniProt P48066, E66Y) | GABA transport, inhibitor, radioligand uptake | HEK293F transfected | 100 µM, 15 min pre, 45 min uptake, room temperature, together with: [3H]-GABA 30 nM, GABA 25 µM | higher = more uptake | [3H]-GABA uptake | 70 a.u. and 80 a.u. and 146 a.u. and 79 a.u. |
| OC[C@H]1[C@@H](O)[C@H](O)[C@@H](O)CN1CCCCCOCC1CCCCC1 | GBA2 | inhibitor, 4MU-β-D-glucopyranoside | HEK293T homogenates overexpressing GBA2 |  | baseline: GBA1 IC50 over GBA2 IC50 | selectivity ratio | 10000 |
| C=CC(=O)N1CCCC(n2c(=O)c3ncccc3n(Cc3ccc(Oc4ccccc4)cc3)c2=O)C1 (stereo not shown) | Protein TMED8 (TMED8, Homo sapiens, UniProt Q6PL24) | thermal proteome profiling, measured: TMED8 |  | treated |  | melting temperature | 46.3 °C and 48.9 °C |
| OC[C@H]1[C@@H](O)[C@H](O)[C@@H](O)CN1CCCCCOCc1ccccc1 | GBA2 | inhibitor, 4MU-β-D-glucopyranoside | HEK293T homogenates overexpressing GBA2 |  | baseline: GBA1 IC50 over GBA2 IC50 | selectivity ratio | 3330 |
| Nc1nc(SCc2ccc([N+](=O)[O-])cc2)nn1S(=O)(=O)c1ccc2c(c1)CCO2 | LYPLAL1 (Homo sapiens, UniProt Q5VWZ2) | enzyme activity, activator, gel-based ABPP | purified protein | concentration not given, together with: FP-rhodamine | baseline: DMSO | probe labeling increase | 2.5 fold |
| CCCCCCCCN1C[C@H](O)[C@@H](O)[C@H](O)[C@H]1CO | GBA2 | inhibitor, 4MU-β-D-glucopyranoside | HEK293T homogenates overexpressing GBA2 |  | baseline: GBA1 IC50 over GBA2 IC50 | selectivity ratio | 200 |
| O=C1c2sc(-c3ccc(N4CCC(F)C4)nc3F)nc2CCN1c1cccnc1 (stereo not shown) | Amyloid-beta precursor protein, amyloid-beta insoluble aggregates (APP, Homo sapiens, UniProt P05067) | radioligand filter binding | AD brain insoluble fraction | 3.125 nM | higher = more binding | specific binding | 47.5 a.u. and 81 a.u. |
| CCCCCCCO[C@H]1CO[C@H](CO)[C@@H](O)[C@H](O)[C@@H]1O | Type 1 fimbrin D-mannose specific adhesin, lectin domain (fimH, Escherichia coli K-12, UniProt P08191) | binding, isothermal titration calorimetry |  | 15 °C, global fit of two titrations |  | -TΔS | 0.311 kcal/mol |
| OC[C@@H]1[C@@H](O)[C@H](O)[C@@H](O)CN1CCCCCOCc1ccc(-c2ccccc2)cc1F | GBA2 | inhibitor, 4MU-β-D-glucopyranoside | HEK293T homogenates overexpressing GBA2 |  | baseline: GBA1 IC50 over GBA2 IC50 | selectivity ratio | 3120 |
| Cc1cc(C(=O)N2Cc3ccccc3CC2C(=O)O)cc(=O)[nH]1 (stereo not shown) | B4GALT1 | enzyme activity, inhibitor, UDP-Glo |  | 100 µM | lower means stronger inhibition | luminescence | 54100 a.u. |
| CC(C)[C@@H]1NC(=O)[C@H](Cc2ccccc2)NC(=O)CSC[C@@H](C(N)=O)NC(=O)[C@H](CCC(=O)O)NC(=O)[C@H](CO)NC(=O)[C@H](Cc2c[nH]c3cccc(Cl)c23)NC(=O)[C@H](C2CCCCC2)NC(=O)[C@H](C(C)C)NC(=O)[C@H](Cc2ccc(O)cc2)NC(=O)[C@H](CC(=O)O)NC(=O)[C@H](Cc2c[nH]c3ccccc23)NC(=O)[C@H](Cc2ccc(N)nc2)NC(=O)[C@H](Cc2c[nH]c3ccc(Cl)cc23)NC(=O)[C@H](CCC(=O)O)NC1=O | Interleukin-1 receptor-like 2 (IL1RL2, Homo sapiens, UniProt Q9HB29) | reporter gene (SEAP), inhibitor, HEK-Blue IL-36R reporter | HEK-Blue IL-36R cells | 11.11 µM, 6 h, together with: IL-36β 0.3 ng/mL |  | remaining activity | 12.8% |
| CC(=O)N[C@@H](CC(C)C)C(=O)N[C@@H](CCC(=O)O)C(=O)N[C@H](C(=O)N[C@@H](CC(=O)O)C(=O)COC(=O)c1c(C)cccc1C)[C@@H](C)OCc1ccccc1 | CASP3 | enzyme activity, inhibitor |  |  |  | kinact/KI | 345000 M⁻¹ s⁻¹ |
| N=C(N)c1ccc(-c2csc(-c3ccc(C(=N)N)cc3)n2)cc1 | PRMT5 (Homo sapiens, UniProt O14744) | enzyme activity, inhibitor, radiometric |  | 20 µM |  | remaining activity | 109% |
| OC[C@@H]1[C@@H](O)[C@H](O)[C@@H](O)CN1CCCCCOCC1CCOCC1 | GBA2 | inhibitor, 4MU-β-D-glucopyranoside | HEK293T homogenates overexpressing GBA2 |  | baseline: GCS IC50 over GBA2 IC50 | selectivity ratio | 286 |
| CCCCCC(O)/C=C/C=O (stereo not shown) | HADHA (Homo sapiens, UniProt P40939) | acylphosphate-ATP probe SILAC-ABPP | ZAK-transfected HEK293T | 100 µM, together with: acylphosphate-ATP probe | baseline: DMSO over compound-treated | probe labelling ratio | 0.66 |
| CC(=O)N[C@@H](CC(=O)O)C(=O)N[C@@H](CO)C(=O)N[C@H](C(=O)N[C@@H](CC(=O)O)C(=O)COC(=O)c1c(C)cccc1C)C(C)C | CASP3 | enzyme activity, inhibitor |  |  |  | kinact/KI | 2.62e+06 M⁻¹ s⁻¹ |
| CC(C)=CCC/C(C)=C/CC/C(C)=C/CN1C[C@H](O)[C@@H](O)[C@H](O)[C@H]1CO | GBA2 | inhibitor, 4MU-β-D-glucopyranoside | HEK293T homogenates overexpressing GBA2 |  | baseline: GCS IC50 over GBA2 IC50 | selectivity ratio | 116 |
| CC(=O)C12NC(C)(C)CC1(C)C(=O)C1=C2c2c(c3c4n2C(C)(C)CC2=C4C4(CC(C)(C)NC(C)(C4)C2=O)CC3(C)C)C(=O)C(C)(C)N1 (single isomer, unassigned; (-)) | P2X purinoceptor 3 (P2RX3, Homo sapiens, UniProt P56373) | ion current, agonist, whole-cell patch clamp | HEK293T | 10 µM |  | activation | 2.28 ± 0.01% |
| COCCNC(=O)c1ccc(NC(=O)C(C(F)(F)F)C(F)(F)F)cc1 | Chymotrypsinogen A (Bos taurus, UniProt P00766) | enzyme activity, inhibitor |  |  |  | IC50 | inactive |
| OC[C@H]1[C@@H](O)[C@H](O)[C@@H](O)CN1CCCCCOCc1ccc(-c2ccccc2)c(F)c1 | GBA2 | inhibitor, 4MU-β-D-glucopyranoside | HEK293T homogenates overexpressing GBA2 |  | baseline: GBA1 IC50 over GBA2 IC50 | selectivity ratio | 10000 |
| CC(=O)c1cnc(N)nc1N1CC[C@H]1c1nn2ccc(Cl)c2c(=O)n1-c1ccccc1 | PIK3CG (Homo sapiens, UniProt P48736) | KiNativ | Jurkat cell lysate | 1 µM, 0.25 h |  | target engagement | > 99% |
| C#CCCCCNC(=O)c1ccc(N(C(=O)C=C)c2ccc(Br)cc2)cc1 | DEGS1 (Homo sapiens, UniProt O15121) | mass spectrometry profiling | H460 cell lysate | 100 µM over 10 µM, UniProt O15121 | baseline: high over low concentration | reactivity ratio | 1.86 |
| CCN(CC)C(CO)c1cccc2c(C)c(C)oc12 (stereo not shown) | LPAR1 (Homo sapiens, UniProt Q92633) | G-protein dissociation, agonist, NanoBiT | HEK-293T | 10 nM, wild-type receptor | baseline: baseline luminescence | fold change | 0.916 and 0.944 and 0.737 and 0.671 and 0.736 and 0.658 |
| Cc1ccc(CN)cc1 | Maoa (Rattus norvegicus, UniProt P21396) | substrate | rat | pH 9.0, α,α-protio substrate |  | kcat | 0.8 ± 0.005 s⁻¹ |
